Assay results pooled from the literature.
Each line is one published result; not all experiments were run side by side. Values joined by “and” are separate records of one study, mostly repeats; a detail may differ. In brackets after ≈: the same amount, converted by molar mass.
Organism: Bacillus subtilis

N[C@@H](Cc1c[nH]c2ccccc12)C(=O)O
EC50 (chemotaxis pathway, FRET; 168): 115 µM

N=c1sc(C(=O)c2ccc(Nc3cnccn3)cc2)nn1-c1ccccc1
MIC (broth microdilution; ATCC 35021): 50 µg/mL

CC[C@H](C)[C@H](N)C(=O)O
EC50 (chemotaxis pathway, FRET; 168): 2.3 µM

O=C(O)c1cn(C2CC2)c2cc(N3CCNCC3)c(F)cc2c1=O
DNA length (bacterial cytological profiling; ATCC 6633): 2.78 µm and 2.54 µm and 2.41 µm

N[C@@H](CC(=O)O)C(=O)O
EC50 (chemotaxis pathway, FRET; 168): > 1000 µM

COc1cccc2c1C(=O)c1c(O)c3c(c(O)c1C2=O)C[C@@](O)(C(=O)CO)C[C@@H]3O[C@H]1C[C@H](N)[C@H](O)[C@H](C)O1
DNA width (bacterial cytological profiling; ATCC 6633): 0.63 µm and 0.6 µm and 0.66 µm

C[C@@H](O)[C@H](N)C(=O)O
EC50 (chemotaxis pathway, FRET; 168): 1.6 µM

N#CC(C#N)=C1SC(C(=O)c2ccc(Nc3cnccn3)cc2)=NN1c1ccc([N+](=O)[O-])cc1
MIC (broth microdilution; ATCC 35021): 3.12 µg/mL

CN(C)[C@@H]1C(O)=C(C(N)=O)C(=O)[C@@]2(O)C(O)=C3C(=O)c4c(O)cccc4[C@@](C)(O)[C@H]3C[C@@H]12
cell perimeter (bacterial cytological profiling; ATCC 6633; concentration not given): 6.43 µm and 6 µm and 6.22 µm

CO[C@H]1[C@H](O[C@H]([C@H]2O[C@@H](n3ccc(=O)[nH]c3=O)[C@H](O)[C@@H]2O)[C@H](NCCCNC(=O)[C@@H](NC(=O)[C@@H](NC(=O)N[C@H](C(=O)O)C(C)C)[C@@H]2CCN=C(N)N2)[C@@H](O)C(C)C)C(=O)O)O[C@H](CN)[C@H]1O
MIC90 (microplate alamar blue; ATCC 6051): > 35 µg/mL

N=c1sc(C(=O)c2ccc(Nc3cnccn3)cc2)nn1-c1ccc([N+](=O)[O-])cc1
MIC (broth microdilution; ATCC 35021): 6.25 µg/mL

COc1cc(C=O)ccc1OC1=C(Cl)C(=O)c2ccccc2C1=O
MIC (broth microdilution; MTCC 1427): 10 µg/mL

CC1(C)S[C@@H]2[C@H](NC(=O)[C@H](N)c3ccccc3)C(=O)N2[C@H]1C(=O)O
cell length (bacterial cytological profiling; ATCC 6633; concentration not given): 3.89 µm and 4.07 µm and 3.87 µm

CC1=N/C(=C\c2cc(F)c(O)c(F)c2)C(=O)N1C
saturating concentration (cytoplasmic accumulation, flow cytometry): 30 µM

CC[C@H](C)CCCCC(=O)N[C@@H](CCN)C(=O)N[C@H](C(=O)N[C@@H](CCN)C(=O)N[C@H]1CCNC(=O)[C@H]([C@@H](C)O)NC(=O)[C@H](CCN)NC(=O)[C@H](CCN)NC(=O)[C@H](CC(C)C)NC(=O)[C@@H](CC(C)C)NC(=O)[C@H](CCN)NC1=O)[C@@H](C)O
MIC (broth microdilution; 168, cation-adjusted Mueller-Hinton broth): 7 µM

NCCCC[C@H](NC(=O)[C@H](Cc1ccccc1)NC(=O)[C@H](CCC(N)=O)NC(=O)[C@H](Cc1ccccc1)NC(=O)[C@H](CCC(N)=O)NC(=O)[C@@H](N)Cc1ccccc1)C(N)=O
MBC: 520 µM (≈ 438 µg/mL)

CCCCCCCNC1=C(n2cncn2)C(=O)c2ccccc2C1=O
zone of inhibition (MTCC 1427; 10 µg/mL): 8 mm

N[C@@H](CS)C(=O)O
EC50 (chemotaxis pathway, FRET; 168): 0.15 µM

Cc1ccc(C(C)C)c(OC2=C(Cl)C(=O)c3ccccc3C2=O)c1
MIC (broth microdilution; MTCC 1427): 12 µg/mL

NC(=O)CC[C@H](N)C(=O)O
EC50 (chemotaxis pathway, FRET; 168): 5.9 µM

CO[C@H]1/C=C/O[C@@]2(C)Oc3c(C)c(O)c4c(O)c(c(/C=N/N5CCN(C)CC5)c(O)c4c3C2=O)NC(=O)/C(C)=C\C=C\[C@H](C)[C@H](O)[C@@H](C)[C@@H](O)[C@@H](C)[C@H](OC(C)=O)[C@@H]1C
DNA width (bacterial cytological profiling; ATCC 6633): 0.71 µm and 0.73 µm and 0.78 µm

CC1CCC(C(C)C)C(OC2=C(Cl)C(=O)c3ccccc3C2=O)C1 (stereo not shown)
zone of inhibition (MTCC 1427; 10 µg/mL): 16 mm

Some of these lines once more:
CN(C)[C@@H]1C(O)=C(C(N)=O)C(=O)[C@@]2(O)C(O)=C3C(=O)c4c(O)cccc4[C@@](C)(O)[C@H]3C[C@@H]12
cell perimeter (bacterial cytological profiling; ATCC 6633; concentration not given): 6.43 µm and 6 µm and 6.22 µm

CO[C@H]1[C@H](O[C@H]([C@H]2O[C@@H](n3ccc(=O)[nH]c3=O)[C@H](O)[C@@H]2O)[C@H](NCCCNC(=O)[C@@H](NC(=O)[C@@H](NC(=O)N[C@H](C(=O)O)C(C)C)[C@@H]2CCN=C(N)N2)[C@@H](O)C(C)C)C(=O)O)O[C@H](CN)[C@H]1O
MIC90 (microplate alamar blue; ATCC 6051): > 35 µg/mL

N=c1sc(C(=O)c2ccc(Nc3cnccn3)cc2)nn1-c1ccc([N+](=O)[O-])cc1
MIC (broth microdilution; ATCC 35021): 6.25 µg/mL
